Measured values pooled from the literature.
A part holds a random share of what one study measured. Numbers after ± are the reported error. Converted amounts (≈) assume the structure as drawn.
Chain of UniProt P31424 (whole entry, looked up): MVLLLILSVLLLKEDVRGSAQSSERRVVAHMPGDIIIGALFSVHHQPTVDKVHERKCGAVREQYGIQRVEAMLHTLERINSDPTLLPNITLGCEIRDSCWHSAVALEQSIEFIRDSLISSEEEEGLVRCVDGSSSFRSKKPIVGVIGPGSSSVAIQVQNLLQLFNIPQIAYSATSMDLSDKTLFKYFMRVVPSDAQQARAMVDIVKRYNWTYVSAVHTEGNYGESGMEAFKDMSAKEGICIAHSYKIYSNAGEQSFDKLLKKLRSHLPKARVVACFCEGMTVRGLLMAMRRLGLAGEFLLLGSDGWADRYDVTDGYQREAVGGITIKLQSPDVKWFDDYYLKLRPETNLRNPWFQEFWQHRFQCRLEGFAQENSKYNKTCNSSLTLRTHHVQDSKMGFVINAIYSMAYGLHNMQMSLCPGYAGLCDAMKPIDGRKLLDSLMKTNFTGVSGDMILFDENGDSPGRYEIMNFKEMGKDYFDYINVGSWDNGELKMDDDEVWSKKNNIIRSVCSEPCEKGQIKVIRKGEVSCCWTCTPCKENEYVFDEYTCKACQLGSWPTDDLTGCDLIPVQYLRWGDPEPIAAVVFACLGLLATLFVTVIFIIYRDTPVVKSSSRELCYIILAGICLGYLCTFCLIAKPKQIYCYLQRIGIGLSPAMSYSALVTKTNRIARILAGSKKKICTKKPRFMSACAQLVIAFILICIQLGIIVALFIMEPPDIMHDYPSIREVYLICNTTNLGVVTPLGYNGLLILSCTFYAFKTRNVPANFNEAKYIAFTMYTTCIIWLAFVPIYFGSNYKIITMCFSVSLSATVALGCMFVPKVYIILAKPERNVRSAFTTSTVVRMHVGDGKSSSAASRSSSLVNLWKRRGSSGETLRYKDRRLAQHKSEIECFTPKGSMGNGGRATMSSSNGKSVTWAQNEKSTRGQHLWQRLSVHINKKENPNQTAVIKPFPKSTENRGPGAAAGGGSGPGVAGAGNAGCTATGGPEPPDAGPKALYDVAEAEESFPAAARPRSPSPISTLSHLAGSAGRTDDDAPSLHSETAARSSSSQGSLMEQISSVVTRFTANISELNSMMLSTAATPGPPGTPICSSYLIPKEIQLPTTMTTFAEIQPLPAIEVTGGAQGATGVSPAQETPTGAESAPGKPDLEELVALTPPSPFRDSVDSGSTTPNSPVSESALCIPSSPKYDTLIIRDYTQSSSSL

Block 1 — time: 18 h; temperature: 37 °C; endpoint: MIC
Compound: CC[C@H](C)[C@H](NC(=O)[C@H](CC(C)C)NC(=O)[C@H](CCCCN)NC(=O)[C@@H](NC(=O)[C@H](C)NC(=O)[C@H](CCC(=O)O)NC(=O)[C@H](Cc1c[nH]cn1)NC(=O)[C@@H](NC(=O)[C@H](CCCCN)NC(=O)[C@H](CCC(N)=O)NC(=O)[C@H](Cc1ccccc1)NC(=O)[C@@H](NC(=O)[C@H](CCCCN)NC(=O)[C@H](CCCCN)NC(=O)[C@H](CC(C)C)NC(=O)[C@H](C)NC(=O)[C@H](CC(N)=O)NC(=O)[C@@H](N)CC(C)C)C(C)C)[C@@H](C)CC)[C@@H](C)CC)C(N)=O
organism = Pseudomonas aeruginosa; test system = 4007, resistant; result = 2 µM (≈ 4.21 µg/mL)
organism = Bacillus subtilis; test system = KCTC 1998; result = 4 µM (≈ 8.42 µg/mL)
organism = Escherichia coli; test system = CCARM 1229, resistant; result = 2 µM (≈ 4.21 µg/mL)

Block 2 — cell line: NB-4 APL cells; endpoint: IC50
SMILES = NC1CC1c1ccc(NC(=O)Cc2ccc3ccccc3c2)cc1 (stereo not shown); result = 16.4 ± 3.3 µM
SMILES = CC(C)CC(NC(=O)OCc1ccccc1)C(=O)Nc1ccc(C2CC2N)cc1 (stereo not shown); result = 46.7 ± 6.2 µM
SMILES = NC1CC1c1ccc(NC(=O)Cc2cccc3ccccc23)cc1 (stereo not shown); result = 17.8 ± 2 µM
SMILES = CC(C)C(NC(=O)OCc1ccccc1)C(=O)Nc1ccc(C2CC2N)cc1 (stereo not shown); result = 70.4 ± 9.8 µM
SMILES = NC1CC1c1ccc(NC(=O)c2cccc3ccccc23)cc1 (stereo not shown); result = 14.4 ± 2.2 µM

Further values, each from its own experiment
Structure (SMILES) = N#Cc1cnc(Nc2nc3ccccc3o2)nc1-c1cccnc1; target = Grm5 (Rattus norvegicus, UniProt P31424); test = calcium mobilization, negative allosteric modulator, cell-based; conditions = together with: glutamate at EC80; endpoint = IC50; result = 0.5 ± 0.023 µM
Structure (SMILES) = C[C@@H](NC(=O)[C@H](Cc1ccccc1)NC(=O)[C@@H](CCCNC(=N)N)NC(=O)[C@H](CCCN)NC(=O)[C@@H]1CNC(=O)c2cc3cc(c2)C(=O)N[C@H](Cc2ccc4ccccc4c2)C(=O)N[C@@H](CO)C(=O)N[C@@H](CC(N)=O)C(=O)N[C@H](Cc2ccc4ccccc4c2)C(=O)N[C@@H](c2ccccc2)C(=O)N[C@@H](CCCCNC3=O)C(=O)N[C@H](Cc2ccccc2)C(=O)N[C@@H](CCC(N)=O)C(=O)N[C@H](CCCNC(=N)N)C(=O)N[C@@H](CCCNC(=N)N)C(=O)N1)C(=O)NCCOCCOCC(=O)NCCOCCOCC(=O)N[C@@H](CCCCNC(=O)c1ccc2c(c1)C(=O)OC21c2ccc(O)cc2Oc2cc(O)ccc21)C(N)=O; target = Albumin (ALB, Bos taurus, UniProt P02769); test = binding; endpoint = Kd; result = 57 µM

Repeated from above (block 1):
organism = Pseudomonas aeruginosa; test system = 4007, resistant; result = 2 µM (≈ 4.21 µg/mL)
